# Assay results pooled from the literature.
# A part holds a random share of what one study measured.
# UniProt P49761, sequence (whole entry, looked up): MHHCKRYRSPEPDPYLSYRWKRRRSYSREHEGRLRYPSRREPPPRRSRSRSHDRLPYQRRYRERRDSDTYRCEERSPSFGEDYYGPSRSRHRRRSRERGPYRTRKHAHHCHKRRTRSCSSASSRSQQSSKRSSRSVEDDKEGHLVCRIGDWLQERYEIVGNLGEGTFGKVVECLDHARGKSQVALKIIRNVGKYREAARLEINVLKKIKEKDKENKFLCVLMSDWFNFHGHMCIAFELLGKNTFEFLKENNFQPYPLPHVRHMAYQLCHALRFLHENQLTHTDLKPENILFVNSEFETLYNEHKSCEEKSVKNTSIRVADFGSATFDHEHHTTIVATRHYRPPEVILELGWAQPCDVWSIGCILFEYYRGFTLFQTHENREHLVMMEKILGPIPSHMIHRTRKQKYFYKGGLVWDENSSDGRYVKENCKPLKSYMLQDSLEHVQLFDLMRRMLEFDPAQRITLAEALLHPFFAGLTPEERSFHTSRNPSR
# UniProt P21860, sequence (whole entry, looked up): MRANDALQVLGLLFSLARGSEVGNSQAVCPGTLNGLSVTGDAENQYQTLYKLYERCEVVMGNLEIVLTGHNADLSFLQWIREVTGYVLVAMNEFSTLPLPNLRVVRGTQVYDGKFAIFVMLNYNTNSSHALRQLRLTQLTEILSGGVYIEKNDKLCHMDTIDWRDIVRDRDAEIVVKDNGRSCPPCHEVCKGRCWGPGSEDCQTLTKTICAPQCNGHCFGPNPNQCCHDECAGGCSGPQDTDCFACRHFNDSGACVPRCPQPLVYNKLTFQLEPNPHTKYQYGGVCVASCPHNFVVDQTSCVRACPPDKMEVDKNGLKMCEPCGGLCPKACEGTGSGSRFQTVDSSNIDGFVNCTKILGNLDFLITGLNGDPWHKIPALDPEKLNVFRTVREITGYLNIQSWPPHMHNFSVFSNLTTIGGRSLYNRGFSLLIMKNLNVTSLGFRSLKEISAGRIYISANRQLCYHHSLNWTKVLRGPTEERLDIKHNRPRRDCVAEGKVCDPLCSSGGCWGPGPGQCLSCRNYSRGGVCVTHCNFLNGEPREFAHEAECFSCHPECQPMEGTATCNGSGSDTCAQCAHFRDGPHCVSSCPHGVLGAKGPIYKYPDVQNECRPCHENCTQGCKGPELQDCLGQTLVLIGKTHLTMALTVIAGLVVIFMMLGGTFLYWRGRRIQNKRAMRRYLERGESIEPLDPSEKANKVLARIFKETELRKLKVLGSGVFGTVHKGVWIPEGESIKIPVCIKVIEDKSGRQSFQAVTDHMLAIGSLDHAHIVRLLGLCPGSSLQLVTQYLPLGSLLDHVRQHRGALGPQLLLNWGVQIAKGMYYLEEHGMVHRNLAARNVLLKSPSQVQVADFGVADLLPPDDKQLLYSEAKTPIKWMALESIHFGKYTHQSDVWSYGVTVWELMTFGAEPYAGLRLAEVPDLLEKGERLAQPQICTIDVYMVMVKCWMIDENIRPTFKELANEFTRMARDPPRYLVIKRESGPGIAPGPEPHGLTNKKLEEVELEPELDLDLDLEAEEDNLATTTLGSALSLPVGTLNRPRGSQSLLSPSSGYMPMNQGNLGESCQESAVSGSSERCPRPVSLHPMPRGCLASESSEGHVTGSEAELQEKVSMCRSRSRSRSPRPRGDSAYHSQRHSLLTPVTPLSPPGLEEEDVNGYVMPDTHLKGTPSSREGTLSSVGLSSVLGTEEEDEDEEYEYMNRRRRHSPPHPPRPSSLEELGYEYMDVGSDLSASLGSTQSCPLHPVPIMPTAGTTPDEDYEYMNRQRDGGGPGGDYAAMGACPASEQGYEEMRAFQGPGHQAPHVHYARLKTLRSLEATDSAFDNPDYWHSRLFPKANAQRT
# UniProt P41743, sequence (whole entry, looked up): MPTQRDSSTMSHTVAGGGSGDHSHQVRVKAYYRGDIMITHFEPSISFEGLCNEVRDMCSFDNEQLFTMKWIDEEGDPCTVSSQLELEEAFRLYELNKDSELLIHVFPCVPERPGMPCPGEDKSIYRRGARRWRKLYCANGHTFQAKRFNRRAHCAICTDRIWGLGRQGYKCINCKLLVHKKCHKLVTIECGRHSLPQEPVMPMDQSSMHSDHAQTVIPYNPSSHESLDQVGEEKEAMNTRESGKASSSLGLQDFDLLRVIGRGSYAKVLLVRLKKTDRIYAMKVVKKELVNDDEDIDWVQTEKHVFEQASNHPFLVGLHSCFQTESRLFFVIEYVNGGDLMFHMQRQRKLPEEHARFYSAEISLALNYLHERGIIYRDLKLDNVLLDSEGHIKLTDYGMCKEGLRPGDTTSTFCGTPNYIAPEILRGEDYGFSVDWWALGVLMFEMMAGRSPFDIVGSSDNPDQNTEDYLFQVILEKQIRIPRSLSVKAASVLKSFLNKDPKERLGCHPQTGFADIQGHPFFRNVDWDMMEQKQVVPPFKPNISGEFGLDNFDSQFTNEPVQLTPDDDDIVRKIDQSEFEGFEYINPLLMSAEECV
# UniProt P23458, sequence (whole entry, looked up): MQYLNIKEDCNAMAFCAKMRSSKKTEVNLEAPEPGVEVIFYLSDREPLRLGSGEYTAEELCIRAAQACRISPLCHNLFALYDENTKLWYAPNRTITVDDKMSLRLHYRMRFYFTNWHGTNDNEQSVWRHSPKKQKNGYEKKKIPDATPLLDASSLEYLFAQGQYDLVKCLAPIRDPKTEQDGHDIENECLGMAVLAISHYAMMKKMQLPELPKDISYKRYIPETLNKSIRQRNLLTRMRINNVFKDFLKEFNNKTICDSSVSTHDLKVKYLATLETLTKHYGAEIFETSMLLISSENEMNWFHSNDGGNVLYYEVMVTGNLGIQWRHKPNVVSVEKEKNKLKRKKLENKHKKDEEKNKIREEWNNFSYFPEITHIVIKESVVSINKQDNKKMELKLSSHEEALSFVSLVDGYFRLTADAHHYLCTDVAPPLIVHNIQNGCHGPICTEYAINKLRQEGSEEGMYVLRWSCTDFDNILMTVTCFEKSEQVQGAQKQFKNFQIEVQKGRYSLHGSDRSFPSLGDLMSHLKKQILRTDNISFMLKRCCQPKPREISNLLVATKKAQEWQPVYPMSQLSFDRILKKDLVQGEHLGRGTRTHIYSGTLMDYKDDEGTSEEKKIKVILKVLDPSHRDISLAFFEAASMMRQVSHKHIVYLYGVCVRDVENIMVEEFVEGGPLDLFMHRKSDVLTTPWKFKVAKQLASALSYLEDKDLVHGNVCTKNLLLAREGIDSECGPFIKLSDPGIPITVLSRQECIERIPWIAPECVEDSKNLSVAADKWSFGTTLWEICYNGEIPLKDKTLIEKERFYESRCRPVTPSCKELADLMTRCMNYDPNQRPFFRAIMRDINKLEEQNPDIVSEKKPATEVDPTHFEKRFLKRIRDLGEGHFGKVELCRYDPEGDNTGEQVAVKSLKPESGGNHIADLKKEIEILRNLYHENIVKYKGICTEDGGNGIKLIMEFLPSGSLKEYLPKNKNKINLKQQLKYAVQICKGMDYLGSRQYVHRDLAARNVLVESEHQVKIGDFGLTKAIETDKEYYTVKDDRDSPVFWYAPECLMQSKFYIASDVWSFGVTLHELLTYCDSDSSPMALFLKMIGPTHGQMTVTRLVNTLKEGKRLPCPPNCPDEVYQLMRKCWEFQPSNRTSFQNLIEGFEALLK
# UniProt O14965, sequence (whole entry, looked up): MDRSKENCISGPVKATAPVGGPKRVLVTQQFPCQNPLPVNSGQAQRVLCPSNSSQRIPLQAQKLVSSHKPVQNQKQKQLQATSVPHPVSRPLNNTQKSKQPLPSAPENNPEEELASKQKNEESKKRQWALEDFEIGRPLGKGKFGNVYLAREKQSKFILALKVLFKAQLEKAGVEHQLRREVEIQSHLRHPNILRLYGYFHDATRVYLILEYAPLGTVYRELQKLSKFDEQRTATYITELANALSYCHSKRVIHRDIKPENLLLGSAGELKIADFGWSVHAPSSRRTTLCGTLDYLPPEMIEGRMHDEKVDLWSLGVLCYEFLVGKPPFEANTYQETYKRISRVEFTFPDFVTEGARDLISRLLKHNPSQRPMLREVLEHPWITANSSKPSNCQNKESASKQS
# UniProt P19525, sequence (whole entry, looked up): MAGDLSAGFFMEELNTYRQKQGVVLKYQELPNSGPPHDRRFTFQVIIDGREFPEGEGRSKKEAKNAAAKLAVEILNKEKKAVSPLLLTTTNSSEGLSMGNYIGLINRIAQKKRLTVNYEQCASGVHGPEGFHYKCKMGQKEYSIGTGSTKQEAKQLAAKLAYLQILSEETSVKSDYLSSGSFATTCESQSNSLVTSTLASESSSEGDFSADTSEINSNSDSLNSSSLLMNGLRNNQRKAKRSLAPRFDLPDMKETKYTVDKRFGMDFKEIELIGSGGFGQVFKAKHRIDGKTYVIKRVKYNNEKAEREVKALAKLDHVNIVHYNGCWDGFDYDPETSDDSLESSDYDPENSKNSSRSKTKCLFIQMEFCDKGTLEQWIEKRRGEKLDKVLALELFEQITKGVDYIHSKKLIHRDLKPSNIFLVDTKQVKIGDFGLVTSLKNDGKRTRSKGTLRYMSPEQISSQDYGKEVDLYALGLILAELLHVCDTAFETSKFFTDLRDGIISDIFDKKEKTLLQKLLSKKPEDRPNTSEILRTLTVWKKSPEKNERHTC

# Sample 1
# Cell line: Huh-7
# Concentration: 10 µM
# Time: 24 h
SMILES,viability [%]
CCCCCCCCN[C@@H](C)[C@H](O)c1ccc(SC(C)C)cc1 (racemic),82.2
N=C(N)NC(=O)c1nc(Cl)c(N)nc1N,98.2
CC(=O)OCC(=O)[C@@]12OC3(CCCC3)O[C@@H]1C[C@H]1[C@@H]3CCC4=CC(=O)C=C[C@]4(C)[C@@]3(F)[C@@H](O)C[C@@]12C,97.4
O=C1OC2(c3ccc(O)cc3Oc3cc(O)ccc32)c2ccccc21,99.6
CC(=O)Oc1ccc2c(c1)CC[C@@H]1[C@@H]2CC[C@]2(C)[C@@H](O)CC[C@@H]12,95
Nc1ncn([C@@H]2O[C@H](CO)[C@@H](O)[C@H]2O)c(=O)n1,63.5
COc1c(N2C[C@@H]3CCCN[C@@H]3C2)c(F)cc2c(=O)c(C(=O)O)cn(C3CC3)c12,99
CC(C)(C)NC[C@H](O)COc1cccc2c1CCCC2=O,100
CCOc1ccc2nc(S(N)(=O)=O)sc2c1,98.8
Oc1cccc(O)c1,99.6
Cc1c(N(C)C)c(=O)n(-c2ccccc2)n1C,106
c1ccc(-c2ccc(C(c3ccccc3)n3ccnc3)cc2)cc1 (stereo not drawn),83.4
CCOC(N)=O,99
c1ccc(CC2=NCCN2)cc1,101
CC[C@]1(O)C[C@H]2CN(CCc3c([nH]c4ccccc34)[C@@](C(=O)OC)(c3cc4c(cc3OC)N(C=O)[C@H]3[C@@](O)(C(=O)OC)[C@H](OC(C)=O)[C@]5(CC)C=CCN6CC[C@]43[C@@H]65)C2)C1,60.9
NC(=O)C1(N2CCCCC2)CCN(CCCC(=O)c2ccc(F)cc2)CC1,98.2
C/C(=C\C(=O)OCCCCCCCCC(=O)O)C[C@@H]1OC[C@H](C[C@@H]2O[C@H]2[C@@H](C)[C@H](C)O)[C@@H](O)[C@H]1O,98.5

# Sample 2
# Target: Aurora kinase B (AURKB, Homo sapiens, UniProt Q96GD4)
# UniProt Q96GD4, sequence (whole entry, looked up): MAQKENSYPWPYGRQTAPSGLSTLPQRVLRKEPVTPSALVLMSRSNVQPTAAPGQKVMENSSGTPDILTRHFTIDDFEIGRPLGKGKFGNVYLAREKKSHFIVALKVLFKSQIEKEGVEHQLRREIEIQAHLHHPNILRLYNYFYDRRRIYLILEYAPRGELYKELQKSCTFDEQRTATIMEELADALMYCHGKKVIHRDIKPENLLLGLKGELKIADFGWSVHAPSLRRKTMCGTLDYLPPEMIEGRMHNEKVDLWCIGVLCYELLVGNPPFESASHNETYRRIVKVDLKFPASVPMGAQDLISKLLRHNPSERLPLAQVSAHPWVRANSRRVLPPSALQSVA
# Read-out: enzyme activity
# Action: inhibitor
# Concentration: 0.5 µM
# Reference: control
SMILES,remaining activity [%]
CCOc1nc(NC(=O)Cc2cc(OC)ccc2OC)cc(N)c1C#N,105
CCN(CC)CCNC(=O)c1c(C)[nH]c(/C=C2\C(=O)Nc3ccc(Cl)cc32)c1C,31.9
O=C1C(Cl)=C(N2C(=O)CCC2=O)C(=O)c2ccccc21,103
C[C@@H]1CCN(C(=O)CC#N)C[C@@H]1N(C)c1ncnc2[nH]ccc12,99.2
COc1cc2c(cc1OC)-c1[nH]nc(Nc3cccc(F)c3)c1C2,79.2
Ic1cccc(CSc2nnc(-c3ccncc3)o2)c1,99
CN(C)C[C@H]1CCn2c(c(C3=C(c4cn(C)c5ccccc45)C(=O)NC3=O)c3ccccc32)C1,96.3
CN([C@@H](Cc1ccc(OS(=O)(=O)c2cccc3cnccc23)cc1)C(=O)N1CCN(c2ccccc2)CC1)S(=O)(=O)c1cccc2cnccc12,104
Nc1cccc(-c2cc3c(Oc4cccc(O)c4)ncnc3[nH]2)c1,71.9
COc1cc2ncnc(Nc3ccc(O)c(Br)c3)c2cc1OC,63.5
Cc1cc2ncc(-c3ccccc3)nc2cc1C,85.4
N#Cc1c(NC(=O)c2cccc3ccccc23)sc2c1CCCC2,103
Cc1cn(-c2cc(NC(=O)c3ccc(C)c(Nc4nccc(-c5cccnc5)n4)c3)cc(C(F)(F)F)c2)cn1,104
c1ccc(-c2cnc(Nc3ccc(OCCN4CCCC4)cc3)s2)cc1,75.8
Cc1nc2cc3nc(-c4cccs4)cnc3cc2n1C,84.9
N#C/C(=C\c1ccc(O)c(O)c1)C(=O)NCc1ccccc1,94.4
c1ccc(-c2[nH]ncc2-c2ccnc3ccccc23)nc1,96
CCN(CC)C(=O)c1ccc(Nc2nc(OCC3CCCCC3)c3[nH]cnc3n2)cc1,30.1
COc1cc2ncnc(Nc3cccc(Cl)c3)c2cc1OC,74.4
O=C(Nc1cccc(Nc2nccc(Nc3cccc(C(F)(F)F)c3)n2)c1)C1CC1,72.8
O=C(NC(NC(=S)Nc1ccc(F)c([N+](=O)[O-])c1)C(Cl)(Cl)Cl)C(c1ccccc1)c1ccccc1 (stereo not drawn),95.3
Cn1nc2c3c(cccc31)C(=O)c1ccccc1-2,83.5

# Sample 3
# Cell line: A-375
# Concentration: 100 µM
# Time: 36 h
SMILES,viability [%]
COCCOC(=O)C1=C(C)NC(C)=C(C(=O)OC(C)C)C1c1cccc([N+](=O)[O-])c1 (stereo not drawn),7.04
CCC[C@H](N[C@@H](C)C(=O)N1[C@H](C(=O)O)C[C@@H]2CCCC[C@@H]21)C(=O)O,98.1
CCC(C)(C)c1ccc(CC(C)CN2C[C@@H](C)O[C@@H](C)C2)cc1 (stereo partly drawn),-1.45
CN(C)CCC=C1c2ccccc2CCc2ccccc21,-0.363
OC[C@@H](O)[C@@H](O[C@@H]1O[C@H](CO)[C@H](O)[C@H](O)[C@H]1O)[C@H](O)[C@@H](O)CO,124
C[C@@H]1C[C@H]2[C@@H]3CCC4=CC(=O)C=C[C@]4(C)[C@@]3(Cl)[C@@H](O)C[C@]2(C)[C@@]1(OC(=O)c1ccco1)C(=O)CCl,6.31
C[N+](C)(C)C[C@H](O)CC(=O)[O-],124
Cn1c(NCCN(CCO)CCCc2ccc([N+](=O)[O-])cc2)cc(=O)n(C)c1=O,91.6
Cc1nnc(SCC2=C(C(=O)O)N3C(=O)[C@@H](NC(=O)Cn4cnnn4)[C@H]3SC2)s1,110
COC(=O)c1ccccc1O,107
c1ccc2c(CC3=NCCN3)cccc2c1,113
CCN(CC)CCOc1ccc2c(c1)C(=O)c1cc(OCCN(CC)CC)ccc1-2,7.17
S=P(N1CC1)(N1CC1)N1CC1,38.9
CC1CNc2c(cccc2S(=O)(=O)N[C@@H](CCCNC(=N)N)C(=O)N2CC[C@@H](C)C[C@@H]2C(=O)O)C1 (stereo partly drawn),102
CCC1(c2ccccc2)C(=O)NCNC1=O,123
C=C(c1ccc(C(=O)O)cc1)c1cc2c(cc1C)C(C)(C)CCC2(C)C,2.38

# Sample 4
# Structure (SMILES): CNC(=O)c1ccc(Nc2ncc(C(F)(F)F)c(NCc3nccnc3N(C)S(C)(=O)=O)n2)cc1
# Technique: competition with immobilised ligand
target,read-out,concentration,remaining binding
"FER (Homo sapiens, UniProt P16591)",cell-free assay,0.1 µM,83%
"CDK3 (Homo sapiens, UniProt Q00526)",cell-free assay,0.1 µM,100%
"PRKAA2 (Homo sapiens, UniProt P54646)",cell-free assay,0.1 µM,100%
"PRKCI (Homo sapiens, UniProt P41743)",cell-free assay,0.1 µM,84%
"CDK18 (Homo sapiens, UniProt Q07002)",cell-free assay,0.1 µM,68%
"SRPK3 (Homo sapiens, UniProt Q9UPE1)",cell-free assay,0.1 µM,100%
"ERBB3 (Homo sapiens, UniProt P21860)",cell-free assay,0.1 µM,93%
"CDK8 (Homo sapiens, UniProt P49336)",cell-free assay,0.1 µM,50%
"CAMK1G (Homo sapiens, UniProt Q96NX5)",cell-free assay,0.1 µM,89%
"Aurora kinase B (AURKB, Homo sapiens, UniProt Q96GD4)",cell-free assay,0.1 µM,73%
"SLK (Homo sapiens, UniProt Q9H2G2)",cell-free assay,0.1 µM,53%
"EIF2AK2 (Homo sapiens, UniProt P19525)",cell-free assay,0.1 µM,100%
"FLT3 (Homo sapiens, UniProt P36888, F691L/ITD)",cell-free assay,0.1 µM,9%
"NEK4 (Homo sapiens, UniProt P51957)",cell-free assay,0.1 µM,76%
"CLK2 (Homo sapiens, UniProt P49760)",binding,1 µM,0%
"SRMS (Homo sapiens, UniProt Q9H3Y6)",cell-free assay,0.1 µM,96%
"Tyrosine-protein kinase JAK1, JH1 (JAK1, Homo sapiens, UniProt P23458)",cell-free assay,0.1 µM,28%
"Aurora kinase A (AURKA, Homo sapiens, UniProt O14965)",cell-free assay,0.1 µM,50%
"Tyrosine-protein kinase ABL1, non-phosphorylated (ABL1, Homo sapiens, UniProt P00519, F317L)",cell-free assay,0.1 µM,100%
"STK38 (Homo sapiens, UniProt Q15208)",cell-free assay,0.1 µM,86%
"CLK3 (Homo sapiens, UniProt P49761)",cell-free assay,0.1 µM,97%
"CSNK1E (Homo sapiens, UniProt P49674)",cell-free assay,0.1 µM,100%
"HIPK3 (Homo sapiens, UniProt Q9H422)",cell-free assay,0.1 µM,47%

# Some of these lines once more (sample 1):
SMILES,viability [%]
CCOc1ccc2nc(S(N)(=O)=O)sc2c1,98.8
O=C1OC2(c3ccc(O)cc3Oc3cc(O)ccc32)c2ccccc21,99.6
CC(=O)OCC(=O)[C@@]12OC3(CCCC3)O[C@@H]1C[C@H]1[C@@H]3CCC4=CC(=O)C=C[C@]4(C)[C@@]3(F)[C@@H](O)C[C@@]12C,97.4
CC(=O)Oc1ccc2c(c1)CC[C@@H]1[C@@H]2CC[C@]2(C)[C@@H](O)CC[C@@H]12,95
COc1c(N2C[C@@H]3CCCN[C@@H]3C2)c(F)cc2c(=O)c(C(=O)O)cn(C3CC3)c12,99
Nc1ncn([C@@H]2O[C@H](CO)[C@@H](O)[C@H]2O)c(=O)n1,63.5
c1ccc(CC2=NCCN2)cc1,101
Cc1c(N(C)C)c(=O)n(-c2ccccc2)n1C,106
Oc1cccc(O)c1,99.6
